Experimental data from different studies.
Compare with care: the assays were run in different laboratories. ± marks the error that the study gave.
Chain of UniProt P25021 (whole entry, looked up): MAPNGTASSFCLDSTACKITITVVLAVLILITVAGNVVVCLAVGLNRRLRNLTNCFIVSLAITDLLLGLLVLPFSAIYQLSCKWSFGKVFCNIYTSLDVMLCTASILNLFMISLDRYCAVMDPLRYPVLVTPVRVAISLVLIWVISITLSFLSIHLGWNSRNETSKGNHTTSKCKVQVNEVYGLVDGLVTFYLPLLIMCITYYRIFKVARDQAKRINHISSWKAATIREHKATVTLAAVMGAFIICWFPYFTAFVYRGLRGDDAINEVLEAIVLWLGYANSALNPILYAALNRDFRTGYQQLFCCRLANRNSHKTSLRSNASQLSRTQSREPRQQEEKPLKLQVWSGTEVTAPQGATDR
Chain of UniProt P21333 (whole entry, looked up): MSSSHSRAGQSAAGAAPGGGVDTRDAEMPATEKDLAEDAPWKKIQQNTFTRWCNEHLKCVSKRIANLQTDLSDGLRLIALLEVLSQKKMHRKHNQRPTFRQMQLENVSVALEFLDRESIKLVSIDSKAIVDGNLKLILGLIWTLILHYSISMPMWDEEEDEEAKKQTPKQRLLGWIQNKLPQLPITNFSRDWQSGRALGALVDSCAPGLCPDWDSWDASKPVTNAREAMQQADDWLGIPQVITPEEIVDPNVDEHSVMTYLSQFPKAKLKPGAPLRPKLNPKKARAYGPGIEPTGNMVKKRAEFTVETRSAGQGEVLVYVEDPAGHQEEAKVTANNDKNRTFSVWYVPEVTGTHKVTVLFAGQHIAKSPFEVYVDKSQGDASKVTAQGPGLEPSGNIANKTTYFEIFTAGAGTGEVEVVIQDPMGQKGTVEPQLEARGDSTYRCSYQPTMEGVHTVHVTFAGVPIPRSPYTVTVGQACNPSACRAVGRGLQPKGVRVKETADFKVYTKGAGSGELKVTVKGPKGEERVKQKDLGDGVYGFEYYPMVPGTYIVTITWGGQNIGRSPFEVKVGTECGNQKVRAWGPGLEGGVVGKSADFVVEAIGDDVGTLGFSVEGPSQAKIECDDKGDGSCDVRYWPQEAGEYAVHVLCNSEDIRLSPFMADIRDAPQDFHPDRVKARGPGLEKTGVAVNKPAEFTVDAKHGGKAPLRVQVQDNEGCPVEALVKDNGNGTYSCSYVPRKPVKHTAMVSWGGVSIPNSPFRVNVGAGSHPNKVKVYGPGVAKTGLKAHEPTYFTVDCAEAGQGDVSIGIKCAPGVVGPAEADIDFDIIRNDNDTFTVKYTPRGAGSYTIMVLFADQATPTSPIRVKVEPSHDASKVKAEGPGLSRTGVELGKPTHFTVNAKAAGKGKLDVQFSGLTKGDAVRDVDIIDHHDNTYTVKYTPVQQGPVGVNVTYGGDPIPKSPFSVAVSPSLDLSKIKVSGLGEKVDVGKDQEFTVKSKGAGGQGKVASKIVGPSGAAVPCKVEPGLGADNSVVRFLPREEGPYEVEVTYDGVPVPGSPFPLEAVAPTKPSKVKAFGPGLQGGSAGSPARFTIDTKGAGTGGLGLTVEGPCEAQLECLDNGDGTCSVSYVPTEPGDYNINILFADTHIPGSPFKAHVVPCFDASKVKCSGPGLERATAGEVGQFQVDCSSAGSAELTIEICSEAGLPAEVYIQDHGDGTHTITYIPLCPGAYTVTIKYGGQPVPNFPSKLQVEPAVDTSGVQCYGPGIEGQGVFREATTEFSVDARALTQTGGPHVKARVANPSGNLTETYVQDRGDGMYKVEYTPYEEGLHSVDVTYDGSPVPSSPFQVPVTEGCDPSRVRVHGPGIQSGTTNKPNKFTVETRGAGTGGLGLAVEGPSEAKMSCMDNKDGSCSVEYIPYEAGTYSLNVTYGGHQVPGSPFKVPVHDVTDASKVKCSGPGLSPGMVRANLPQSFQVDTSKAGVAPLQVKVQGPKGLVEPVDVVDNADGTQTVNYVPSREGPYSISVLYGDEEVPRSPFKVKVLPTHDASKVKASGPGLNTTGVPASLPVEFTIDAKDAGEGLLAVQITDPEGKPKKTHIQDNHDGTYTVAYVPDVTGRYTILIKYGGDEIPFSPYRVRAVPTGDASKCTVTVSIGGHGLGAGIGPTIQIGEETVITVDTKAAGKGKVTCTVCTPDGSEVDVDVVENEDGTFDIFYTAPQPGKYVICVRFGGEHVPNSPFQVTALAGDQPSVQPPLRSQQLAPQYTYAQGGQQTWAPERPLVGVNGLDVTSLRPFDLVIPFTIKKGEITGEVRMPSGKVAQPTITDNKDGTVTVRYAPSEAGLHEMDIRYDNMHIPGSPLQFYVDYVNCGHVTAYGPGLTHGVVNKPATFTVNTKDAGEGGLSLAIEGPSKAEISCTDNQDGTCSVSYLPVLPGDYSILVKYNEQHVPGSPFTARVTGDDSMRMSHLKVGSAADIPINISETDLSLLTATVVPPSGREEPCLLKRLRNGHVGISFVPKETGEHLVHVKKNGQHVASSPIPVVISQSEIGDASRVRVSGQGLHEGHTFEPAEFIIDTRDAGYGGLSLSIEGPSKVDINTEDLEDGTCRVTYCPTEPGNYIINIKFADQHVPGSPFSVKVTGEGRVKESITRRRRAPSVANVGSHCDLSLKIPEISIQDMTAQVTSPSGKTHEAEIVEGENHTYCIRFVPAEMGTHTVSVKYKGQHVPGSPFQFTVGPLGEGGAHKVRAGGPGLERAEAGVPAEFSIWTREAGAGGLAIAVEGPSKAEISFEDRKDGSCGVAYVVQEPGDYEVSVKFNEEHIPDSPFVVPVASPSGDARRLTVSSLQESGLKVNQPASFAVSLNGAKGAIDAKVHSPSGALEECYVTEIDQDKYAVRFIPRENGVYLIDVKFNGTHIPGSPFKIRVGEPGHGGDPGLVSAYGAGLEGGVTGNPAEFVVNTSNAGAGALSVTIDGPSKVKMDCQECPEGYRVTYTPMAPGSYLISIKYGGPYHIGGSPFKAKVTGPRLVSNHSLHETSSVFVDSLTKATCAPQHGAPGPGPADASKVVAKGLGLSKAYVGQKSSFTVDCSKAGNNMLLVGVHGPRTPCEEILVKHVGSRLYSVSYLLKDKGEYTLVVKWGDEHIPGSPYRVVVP

Compound	target or system	test	test system	conditions	how to read	quantity	result
CO[C@H]1C[C@@H]2CC[C@@H](C)[C@@](O)(O2)C(=O)C(=O)N2CCCC[C@H]2C(=O)O[C@H]([C@H](C)C[C@@H]2CC[C@@H](OC(=O)NCCOCCOCCOCCOCCOCCOCCOCCOCCC(=O)N3CCc4cc(Cn5nc(-c6ccc7oc(N)nc7c6)c6c(N)ncnc65)ccc4C3)[C@H](OC)C2)C[C@@H](O)[C@H](C)/C=C(\C)[C@@H](O)[C@@H](OC)C(=O)[C@H](C)C[C@H](C)/C=C/C=C/C=C/1C		phase 1 dose escalation, refers to: rash	advanced solid tumour patients	intravenous, 12 mg weekly, any grade		TRAE incidence	8.3%
Cc1onc(-c2c(F)cccc2Cl)c1C(=O)N[C@@H]1C(=O)N2[C@@H]1SC(C)(C)[C@@H]2C(=O)O			human plasma	concentration not given, 8 months, -80 °C		deviation from nominal concentration	13.4%
CC(C)CC(=O)OC[C@H]1O[C@@](C#N)(c2ccc3c(N)ncnn23)[C@H](O)[C@@H]1O	ABCB1 (Homo sapiens, UniProt P08183)		Caco-2	90 µM, added: zosuquidar 25 µM		Papp B to A	0.667 ×10⁻⁶ cm/s
CC[C@H](C)[C@@H]1NC(=O)[C@@H]2CCCN2C(=O)[C@H](CC(C)C)NC(=O)[C@H](CC(C)C)NC(=O)CNC(=O)[C@@H](NC(=O)[C@@H](NC(=O)[C@H](CC(=O)O)NC(=O)CNC(=O)[C@@H](NC(=O)[C@H](C)NC(=O)CNC(=O)[C@H](CCCCN)NC(=O)[C@H](CC(C)C)NC(=O)[C@H](CC(C)C)NC(=O)[C@H](CCCCN)NC(=O)CNC(=O)[C@@H](NC(=O)[C@@H](N)CC(C)C)C(C)C)C(C)C)C(C)C)CSSC[C@@H](C(=O)O)NC1=O		RNA-seq, refers to: Gmfg mRNA	mouse traumatic brain injury, frontal cortex and hippocampus	dose not given	baseline: TBI plus compound vs TBI	log2 fold change	-2.59
CN1CC[C@@H](c2c(O)cc(O)c3c(=O)cc(-c4ccc(C(F)(F)F)cc4Cl)oc23)[C@@H]1CO		refers to: Neutropenia	relapsed AML	oral, 100 mg, grade 3-4, intermittent dosing		patients with adverse event	0%
CC[C@H](C)[C@H](NC(=O)[C@H](CCCNC(=N)N)NC(=O)[C@H](CCCNC(=N)N)NC(=O)[C@H](CCCNC(=N)N)NC(=O)[C@H](CCCNC(=N)N)NC(=O)[C@H](CCCNC(=N)N)NC(=O)[C@@H](N)CCCNC(=N)N)C(=O)N[C@@H](CO)C(=O)N[C@@H](Cc1ccccc1)C(=O)N[C@@H](CC(C)C)C(=O)NCC(=O)N[C@@H](CO)C(=O)N[C@@H](CCCCN)C(=O)N[C@@H](CCCCN)C(=O)N[C@@H](CCCCN)C(=O)N[C@@H](CCCCN)C(=O)N[C@@H](CC(C)C)C(=O)N[C@@H](CC(C)C)C(=O)N[C@@H](CCCCN)C(=O)N[C@@H](CCCNC(=N)N)C(N)=O	human erythrocytes			400 µM, 1 h	baseline: Triton X-100	hemolysis	3%
CN1CCN(c2cc(-c3ccncc3)c(-c3ccc4ccccc4c3)nn2)CC1	HRH2 (Homo sapiens, UniProt P25021)	antagonist, FLIPR		10 µM		inhibition	-5%
[Cl-].[Cl-].[Pt+2].[Ru+2].c1ccc(-c2nc3ccccc3nc2-c2ccccn2)nc1.c1cnc2c(c1)ccc1cccnc12.c1cnc2c(c1)ccc1cccnc12	Danio rerio		embryos	75 µM, 12 h		survival rate	73.3 ± 2.2%
CC(=O)N1CCC(C(=O)N2CCN3C(=O)c4cc(-c5ccccc5)ccc4NC(=O)C3C2)CC1 (stereo not shown)	Escherichia coli		WP2 uvrA	1.58 µg/plate, with rat liver S9		revertants per plate	27.5
O=c1ccc2ccccc2o1	NHEK	AhR translocation		concentration not given, 6 h		chance response	0.01%
C[C@@H](c1nc(-c2ccc(C#N)cc2)cs1)[C@](O)(Cn1cncn1)c1cc(F)ccc1F		gastrointestinal disorders	human	oral, dose not given, added: ethinyl estradiol/norethindrone		subjects with adverse event	17.4%
C[C@H]1CN(c2n[nH]c3nc(N[C@H]4CC[C@H](NS(=O)(=O)CCC(F)(F)F)CC4)ncc23)CCO1	Filamin-A (Homo sapiens, UniProt P21333)	competitor, Kinobeads competition	human cell extract	0.8 µM	baseline: vehicle	relative abundance	1.44
COc1cc2c(Oc3ccc4[nH]c(C)cc4c3F)ccnc2cc1OCC1(N)CC1			paediatric recurrent refractory sarcoma	12 mg		grade 1 or 2 hand-foot syndrome	45.5%
COc1cccc(-c2n[nH]c(SCc3ccccn3)n2)c1OC	Salmonella typhimurium	Ames test, preincubation	TA100	1.0 mg/plate, with rat liver S9		revertant colonies per plate	130
CC(C)C[C@@H]1NC(=O)[C@H](CC(C)C)NC(=O)[C@H](Cc2c[nH]c3ccccc23)NC(=O)[C@H](CO)NC(=O)[C@H](Cc2c[nH]c3ccccc23)NC(=O)[C@@H]2CCCN2C(=O)[C@H](CC(C)C)NC(=O)[C@H](Cc2c[nH]cn2)NC(=O)[C@@H]2CCCN2C(=O)[C@H](CC(N)=O)NC(=O)[C@H](C)NC(=O)[C@H](Cc2ccc(O)cc2)NC(=O)[C@H](CS)NC(=O)[C@H](CCCCNC(=O)CN2CCN(CC(=O)O)CCN(CC(=O)O)CCN(CC(=O)O)CC2)NC1=O [lutetium-177 labelled]			Balb/c mouse, female, 4T1 tumour, intestine	intravenous, 3.7 MBq, 1 h		tissue uptake	0.34 ± 0.12 %ID
C[C@@H](O)[C@H](NC(=O)[C@@H]1CSSC[C@H](NC(=O)[C@@H](Cc2ccccc2)NC(=O)CN2CCN(CC(=O)[O-])CCN(CC(=O)[O-])CCN(CC(=O)[O-])CC2)C(=O)N[C@@H](Cc2ccc(O)cc2)C(=O)N[C@H](Cc2c[nH]c3ccccc23)C(=O)N[C@@H](CCCCN)C(=O)N[C@@H]([C@@H](C)O)C(=O)N1)C(=O)O.[177Lu+3]	MEC1	gamma counter		30 min efflux after 2 h loading		retention	37.4%

Some of these lines once more:
Compound	target or system	test	test system	conditions	how to read	quantity	result
C[C@@H](O)[C@H](NC(=O)[C@@H]1CSSC[C@H](NC(=O)[C@@H](Cc2ccccc2)NC(=O)CN2CCN(CC(=O)[O-])CCN(CC(=O)[O-])CCN(CC(=O)[O-])CC2)C(=O)N[C@@H](Cc2ccc(O)cc2)C(=O)N[C@H](Cc2c[nH]c3ccccc23)C(=O)N[C@@H](CCCCN)C(=O)N[C@@H]([C@@H](C)O)C(=O)N1)C(=O)O.[177Lu+3]	MEC1	gamma counter		30 min efflux after 2 h loading		retention	37.4%
